Published values gathered from unrelated publications.
Each numbered part is a random draw from the data of one study; scales do not carry over between parts. “And” joins repeats or separate records; there may be more than shown.
Chain of UniProt P42684 (whole entry, looked up): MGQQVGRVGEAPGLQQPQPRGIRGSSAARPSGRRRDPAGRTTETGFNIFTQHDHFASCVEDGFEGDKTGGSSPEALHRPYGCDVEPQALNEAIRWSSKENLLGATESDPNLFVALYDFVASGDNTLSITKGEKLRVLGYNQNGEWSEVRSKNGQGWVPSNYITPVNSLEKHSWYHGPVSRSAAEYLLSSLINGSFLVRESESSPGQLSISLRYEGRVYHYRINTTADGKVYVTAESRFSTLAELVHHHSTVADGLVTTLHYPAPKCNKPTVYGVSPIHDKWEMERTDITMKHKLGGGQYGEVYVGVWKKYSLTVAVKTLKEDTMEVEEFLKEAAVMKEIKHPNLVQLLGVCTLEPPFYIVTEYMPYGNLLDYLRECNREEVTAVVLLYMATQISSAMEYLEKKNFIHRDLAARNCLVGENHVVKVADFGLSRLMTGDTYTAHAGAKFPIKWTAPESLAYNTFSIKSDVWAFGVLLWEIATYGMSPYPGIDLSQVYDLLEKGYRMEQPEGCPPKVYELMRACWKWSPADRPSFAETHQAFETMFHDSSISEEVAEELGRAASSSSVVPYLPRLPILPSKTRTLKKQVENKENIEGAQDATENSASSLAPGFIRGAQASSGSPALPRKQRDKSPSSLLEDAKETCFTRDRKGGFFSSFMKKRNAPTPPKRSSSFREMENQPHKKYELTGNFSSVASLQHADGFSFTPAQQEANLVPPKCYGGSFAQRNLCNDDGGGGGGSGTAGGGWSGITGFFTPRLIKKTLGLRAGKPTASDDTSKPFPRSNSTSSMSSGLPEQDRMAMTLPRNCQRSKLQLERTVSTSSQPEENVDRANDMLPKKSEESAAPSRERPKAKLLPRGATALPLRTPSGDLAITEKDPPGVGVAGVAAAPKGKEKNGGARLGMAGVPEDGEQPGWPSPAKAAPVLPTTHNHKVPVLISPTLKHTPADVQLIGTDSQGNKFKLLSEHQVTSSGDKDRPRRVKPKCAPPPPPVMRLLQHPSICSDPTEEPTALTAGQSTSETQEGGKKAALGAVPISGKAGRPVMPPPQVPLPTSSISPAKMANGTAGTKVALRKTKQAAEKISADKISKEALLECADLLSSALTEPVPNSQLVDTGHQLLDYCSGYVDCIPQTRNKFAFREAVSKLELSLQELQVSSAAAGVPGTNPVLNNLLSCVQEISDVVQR
Chain of UniProt Q9UQ88 (whole entry, looked up): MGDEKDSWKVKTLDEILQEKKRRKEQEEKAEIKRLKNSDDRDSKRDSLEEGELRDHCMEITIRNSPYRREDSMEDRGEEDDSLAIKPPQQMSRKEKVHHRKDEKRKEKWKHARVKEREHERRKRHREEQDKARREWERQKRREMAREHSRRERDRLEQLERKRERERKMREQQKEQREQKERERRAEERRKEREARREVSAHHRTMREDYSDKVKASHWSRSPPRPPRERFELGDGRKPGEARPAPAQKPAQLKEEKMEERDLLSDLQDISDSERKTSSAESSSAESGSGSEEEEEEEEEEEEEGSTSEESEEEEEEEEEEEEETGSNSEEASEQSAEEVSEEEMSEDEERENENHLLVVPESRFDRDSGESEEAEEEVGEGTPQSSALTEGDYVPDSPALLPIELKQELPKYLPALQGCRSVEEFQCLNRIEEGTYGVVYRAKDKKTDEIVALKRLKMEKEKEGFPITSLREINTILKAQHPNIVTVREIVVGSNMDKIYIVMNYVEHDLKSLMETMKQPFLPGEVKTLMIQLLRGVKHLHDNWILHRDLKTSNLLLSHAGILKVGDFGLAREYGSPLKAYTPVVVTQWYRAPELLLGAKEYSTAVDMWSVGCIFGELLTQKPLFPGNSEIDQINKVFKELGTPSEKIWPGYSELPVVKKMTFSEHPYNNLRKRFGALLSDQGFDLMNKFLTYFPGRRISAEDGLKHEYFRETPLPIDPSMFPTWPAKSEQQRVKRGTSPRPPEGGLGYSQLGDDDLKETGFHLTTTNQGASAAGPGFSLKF
Chain of UniProt P51812 (whole entry, looked up): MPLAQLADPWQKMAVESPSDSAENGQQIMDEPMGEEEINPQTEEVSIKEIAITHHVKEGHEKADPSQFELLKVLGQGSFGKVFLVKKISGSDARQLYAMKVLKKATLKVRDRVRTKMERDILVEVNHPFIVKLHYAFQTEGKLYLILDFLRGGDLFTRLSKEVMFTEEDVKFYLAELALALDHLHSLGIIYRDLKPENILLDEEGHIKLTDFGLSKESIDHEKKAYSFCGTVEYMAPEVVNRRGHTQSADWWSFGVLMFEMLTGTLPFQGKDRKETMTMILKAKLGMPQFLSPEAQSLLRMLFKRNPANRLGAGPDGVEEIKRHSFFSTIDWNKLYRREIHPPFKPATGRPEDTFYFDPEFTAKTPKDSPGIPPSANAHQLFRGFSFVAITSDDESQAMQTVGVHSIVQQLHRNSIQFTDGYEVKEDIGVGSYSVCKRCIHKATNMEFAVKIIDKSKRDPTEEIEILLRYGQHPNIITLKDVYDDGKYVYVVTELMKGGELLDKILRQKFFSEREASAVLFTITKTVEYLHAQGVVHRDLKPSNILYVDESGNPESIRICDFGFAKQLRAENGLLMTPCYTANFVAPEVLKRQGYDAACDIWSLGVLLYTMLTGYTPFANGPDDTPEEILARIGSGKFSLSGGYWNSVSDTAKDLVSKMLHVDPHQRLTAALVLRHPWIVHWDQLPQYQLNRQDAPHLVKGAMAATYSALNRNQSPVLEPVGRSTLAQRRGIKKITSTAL
Chain of UniProt P52564 (whole entry, looked up): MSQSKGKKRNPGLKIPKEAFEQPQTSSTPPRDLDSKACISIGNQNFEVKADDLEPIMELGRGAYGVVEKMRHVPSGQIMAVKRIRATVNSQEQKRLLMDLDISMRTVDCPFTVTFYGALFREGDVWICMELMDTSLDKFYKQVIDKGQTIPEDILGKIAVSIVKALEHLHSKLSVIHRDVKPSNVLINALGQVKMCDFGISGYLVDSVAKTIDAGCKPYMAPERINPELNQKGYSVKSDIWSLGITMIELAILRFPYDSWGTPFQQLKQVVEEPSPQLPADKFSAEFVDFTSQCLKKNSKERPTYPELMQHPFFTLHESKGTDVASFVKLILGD
Chain of UniProt Q13557 (whole entry, looked up): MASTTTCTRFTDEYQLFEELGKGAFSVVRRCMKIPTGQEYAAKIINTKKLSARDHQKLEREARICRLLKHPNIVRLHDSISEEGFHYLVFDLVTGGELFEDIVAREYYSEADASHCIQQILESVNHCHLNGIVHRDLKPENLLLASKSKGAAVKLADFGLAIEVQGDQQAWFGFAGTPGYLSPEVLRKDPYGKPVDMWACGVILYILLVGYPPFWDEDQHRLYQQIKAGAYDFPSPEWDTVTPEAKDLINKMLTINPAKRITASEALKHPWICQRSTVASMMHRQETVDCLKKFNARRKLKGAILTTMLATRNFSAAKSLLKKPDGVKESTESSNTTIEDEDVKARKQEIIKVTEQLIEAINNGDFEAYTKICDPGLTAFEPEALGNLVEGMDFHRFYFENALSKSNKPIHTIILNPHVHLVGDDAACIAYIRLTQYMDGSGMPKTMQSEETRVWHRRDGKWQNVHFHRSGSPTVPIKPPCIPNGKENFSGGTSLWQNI
Chain of UniProt P49674 (whole entry, looked up): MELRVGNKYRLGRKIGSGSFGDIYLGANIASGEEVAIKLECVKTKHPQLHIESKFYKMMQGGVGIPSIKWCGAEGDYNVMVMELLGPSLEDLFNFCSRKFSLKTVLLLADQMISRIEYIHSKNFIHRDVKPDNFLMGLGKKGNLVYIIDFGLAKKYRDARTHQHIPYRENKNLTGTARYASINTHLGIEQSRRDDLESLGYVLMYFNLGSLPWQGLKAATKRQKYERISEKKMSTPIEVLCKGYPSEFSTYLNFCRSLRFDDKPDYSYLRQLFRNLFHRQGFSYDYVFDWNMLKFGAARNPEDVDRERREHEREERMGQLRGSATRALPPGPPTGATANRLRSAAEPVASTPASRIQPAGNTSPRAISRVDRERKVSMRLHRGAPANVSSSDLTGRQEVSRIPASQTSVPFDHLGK
Chain of UniProt Q8TDX7 (whole entry, looked up): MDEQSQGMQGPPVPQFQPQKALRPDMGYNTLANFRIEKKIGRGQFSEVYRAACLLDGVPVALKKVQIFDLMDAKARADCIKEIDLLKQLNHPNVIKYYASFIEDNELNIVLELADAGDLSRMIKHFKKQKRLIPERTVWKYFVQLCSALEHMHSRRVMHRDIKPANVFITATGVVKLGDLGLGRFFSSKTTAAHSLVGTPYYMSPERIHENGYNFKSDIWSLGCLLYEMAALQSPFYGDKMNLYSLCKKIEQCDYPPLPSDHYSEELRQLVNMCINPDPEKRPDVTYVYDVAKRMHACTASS

Set 1 — technique: competition with immobilised ligand; concentration: 1 µM
Compound: CS(=O)(=O)NCC[C@H](NC(=O)c1cncc2c1cnn2-c1ccc(F)cc1)c1ccnc(S(C)(=O)=O)c1
| target | effect on | remaining binding [%] |
| --- | --- | --- |
| Serine/threonine-protein kinase Nek4 (NEK4, Homo sapiens, UniProt P51957) | cell-free assay | 100 |
| Tyrosine-protein kinase ABL2 (ABL2, Homo sapiens, UniProt P42684) | cell-free assay | 93 |
| Proto-oncogene tyrosine-protein kinase receptor Ret (RET, Homo sapiens, UniProt P07949, M918T) | cell-free assay | 100 |
| Tyrosine-protein kinase ABL1, phosphorylated (ABL1, Homo sapiens, UniProt P00519) | cell-free assay | 100 |
| Epidermal growth factor receptor (EGFR, Homo sapiens, UniProt P00533, L858R/T790M) | cell-free assay | 78 |
| Serine/threonine-protein kinase WNK4 (WNK4, Homo sapiens, UniProt Q96J92) | cell-free assay | 100 |
| Calcium/calmodulin-dependent protein kinase type II subunit delta (CAMK2D, Homo sapiens, UniProt Q13557) | cell-free assay | 100 |
| Inhibitor of nuclear factor kappa-B kinase subunit epsilon (IKBKE, Homo sapiens, UniProt Q14164) | cell-free assay | 78 |
| Cyclin-dependent kinase 2 (CDK2, Homo sapiens, UniProt P24941) | cell-free assay | 100 |
| Phosphatidylinositol 3-kinase catalytic subunit type 3 (PIK3C3, Homo sapiens, UniProt Q8NEB9) | cell-free assay | 100 |
| Insulin receptor-related protein (INSRR, Homo sapiens, UniProt P14616) | cell-free assay | 100 |
| Receptor-type tyrosine-protein kinase FLT3 (FLT3, Homo sapiens, UniProt P36888, ITD) | cell-free assay | 92 |
| Serine/threonine-protein kinase Nek7 (NEK7, Homo sapiens, UniProt Q8TDX7) | cell-free assay | 90 |
| Casein kinase I isoform epsilon (CSNK1E, Homo sapiens, UniProt P49674) | cell-free assay | 100 |
| Ribosomal protein S6 kinase alpha-3, C-terminal kinase domain (RPS6KA3, Homo sapiens, UniProt P51812) | cell-free assay | 98 |
| Cyclin-dependent kinase 11A (CDK11A, Homo sapiens, UniProt Q9UQ88) | binding | 100 |
| Dual specificity mitogen-activated protein kinase kinase 6 (MAP2K6, Homo sapiens, UniProt P52564) | cell-free assay | 82 |

Set 2 — effect on: enzyme activity; mode: inhibitor; concentration: 0.5 µM; relative to: control
Target: MAP/microtubule affinity-regulating kinase 3 (MARK3, Homo sapiens, UniProt P27448)
Chain of UniProt P27448 (whole entry, looked up): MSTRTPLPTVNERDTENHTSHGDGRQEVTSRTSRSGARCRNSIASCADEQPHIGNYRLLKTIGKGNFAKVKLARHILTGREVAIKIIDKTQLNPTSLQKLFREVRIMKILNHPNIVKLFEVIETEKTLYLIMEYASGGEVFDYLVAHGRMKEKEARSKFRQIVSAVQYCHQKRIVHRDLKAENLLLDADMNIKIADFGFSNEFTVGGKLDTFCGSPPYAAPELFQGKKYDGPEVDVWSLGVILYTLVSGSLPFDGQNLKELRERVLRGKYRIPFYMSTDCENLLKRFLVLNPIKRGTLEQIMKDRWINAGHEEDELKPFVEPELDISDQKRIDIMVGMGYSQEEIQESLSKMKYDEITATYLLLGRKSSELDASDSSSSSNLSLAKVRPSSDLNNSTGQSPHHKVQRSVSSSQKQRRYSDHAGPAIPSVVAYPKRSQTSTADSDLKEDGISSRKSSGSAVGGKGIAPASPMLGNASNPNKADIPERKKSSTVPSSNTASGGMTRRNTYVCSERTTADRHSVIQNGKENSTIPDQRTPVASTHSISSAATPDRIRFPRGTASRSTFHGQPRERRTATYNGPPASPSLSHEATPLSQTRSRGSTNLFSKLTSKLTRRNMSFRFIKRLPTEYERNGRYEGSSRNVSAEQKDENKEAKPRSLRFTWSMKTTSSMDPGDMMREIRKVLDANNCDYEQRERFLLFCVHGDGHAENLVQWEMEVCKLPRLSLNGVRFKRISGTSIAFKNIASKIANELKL
| Structure (SMILES) | remaining activity |
| --- | --- |
| Cn1sc(=O)n(Cc2ccccc2)c1=O | 97.1% |
| O=C1NC(=O)C(c2cn(CCCO)c3ncccc23)=C1c1cnccn1 | 87.8% |
| COc1cc2ncnc(Nc3ccc(F)c(Cl)c3)c2cc1OCCCN1CCOCC1 | 94.5% |
| C#Cc1cccc(Nc2ncnc3cc(OCCOC)c(OCCOC)cc23)c1 | 96.4% |
| COc1ccc(OC)c2c(=S)c3ccccc3[nH]c12 | 96.7% |
| N#CC(C#N)=C(N)/C(C#N)=C/c1ccc(O)cc1 | 96.5% |
| O=c1c2ccccc2[nH]c(=S)n1CCN1CCC(=C(c2ccc(F)cc2)c2ccc(F)cc2)CC1 | 107% |
| CCOC(=O)c1c(C)[nH]c(/C=C2\C(=O)Nc3ccccc32)c1C | 99.8% |
| O=C(Nc1cccc(Nc2cc(Nc3cccc(C(F)(F)F)c3)ncn2)c1)C1CC1 | 105% |
| CO[C@H]1C[C@@H]2CC[C@@H](C)[C@@](O)(O2)C(=O)C(=O)N2CCCC[C@H]2C(=O)O[C@H]([C@H](C)C[C@@H]2CC[C@@H](O)[C@H](OC)C2)CC(=O)[C@H](C)/C=C(\C)[C@@H](O)[C@@H](OC)C(=O)[C@H](C)C[C@H](C)/C=C/C=C/C=C/1C | 99% |
| OCC(O)CCON=C1C(c2c(O)[nH]c3ccccc23)=Nc2ccccc21 (stereo not shown) | 75.2% |
| Cn1c2ccccc2c2c3c(c4c5ccccc5n(CCC#N)c4c21)CNC3=O | 13.9% |
| O=C(O)c1ccc2c3c1cccc3c(=O)n1c3ccccc3nc21 | 82.6% |
| COc1ccc(CNC(=O)Nc2ncc([N+](=O)[O-])s2)cc1 | 105% |

Set 3 — technique: trypan blue exclusion; time: 48 h; relative to: untreated
SMILES: O=C(NC1CCNCC1)c1n[nH]cc1NC(=O)c1c(Cl)cccc1Cl
| cell line | concentration | viability |
| --- | --- | --- |
| HuT78 | 0.01 µM | 106% |
| HuT78 | 0.5 µM | 36.5% and 51% |
| HH | 1 µM | 19.6% and 16.4% |
| HuT78 | 0.05 µM | 107% |

Set 4 — species: human; medium: microsomes or S9; concentration: 2 µM; time: 0.5 h
| Structure (SMILES) | remaining compound [%] |
| --- | --- |
| CCN(CCn1cccn1)Cc1[nH]nc(C)c1Cl | 57.4 |
| N#Cc1cnc(NCC2CCN(CC(O)c3ccccc3)CC2)cn1 (stereo not shown) | > 100 |
| CC(C)Nc1ccnc(N2CCN(Cc3cccs3)C(CCO)C2)n1 (stereo not shown) | 5.05 |
| Cc1ccccc1S(=O)(=O)N(CCn1nnc(C(=O)O)c1C(=O)O)C1CCCCC1 | > 99.9 |
| CS(=O)(=O)N1CCN(Cc2ccc(Oc3cccc(C(F)(F)F)c3)c3c(N)n[nH]c23)CC1 | 80.8 |

A few entries again (set 1):
| target | effect on | remaining binding [%] |
| --- | --- | --- |
| Epidermal growth factor receptor (EGFR, Homo sapiens, UniProt P00533, L858R/T790M) | cell-free assay | 78 |
| Cyclin-dependent kinase 11A (CDK11A, Homo sapiens, UniProt Q9UQ88) | binding | 100 |
| Tyrosine-protein kinase ABL1, phosphorylated (ABL1, Homo sapiens, UniProt P00519) | cell-free assay | 100 |
| Ribosomal protein S6 kinase alpha-3, C-terminal kinase domain (RPS6KA3, Homo sapiens, UniProt P51812) | cell-free assay | 98 |
| Dual specificity mitogen-activated protein kinase kinase 6 (MAP2K6, Homo sapiens, UniProt P52564) | cell-free assay | 82 |
